Published values of several laboratories.
A part holds a random share of what one study measured. Substitutions count along the parent as printed.

Set 1 — method: RNA Bind-n-Seq; molecule type: RNA; medium: in vitro; tested at: 365 nM; reference: no-protein control; direction: higher = stronger binding
Target: RNA binding protein fox-1 homolog 2, RRM domain, GST-SBP tag (RBFOX2, Homo sapiens, UniProt O43251-10, residues 100-194)
Setting: natural RNA segment, single round, ends assumed
All sequences stand within: GGGAGUUCUACAGUCCGACGAUC … UGGAAUUCUCGGGUGCCAA
Residues (chain): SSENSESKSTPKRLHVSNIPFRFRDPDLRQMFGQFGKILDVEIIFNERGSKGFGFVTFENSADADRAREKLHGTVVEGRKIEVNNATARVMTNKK
| Oligonucleotide | RBNS enrichment (R) |
| --- | --- |
| UAACAUUUCCUGGUCAGGAAGGAAAAUCAGUACCUGGACGGGCCUCGAAAAUGACAAAUGCAACAGCGAGCCCUUUGUGUCCAGCUAAGCUAAAGUCUCCUCAGUGUGCA | 2.57 |
| AUUGAUAUCAUACAUUUAGACUGCUGUUCUGAUUGCAUUUAUCUUUUUCCUACAUCAUUUAGAAUUUUAUUUCCCUGAUUCAGUUUUUGCUGCUGUGAAACAGCUCUGAU | 0.314 |
| CUAGAUUCAGCAAUGAAAAUCCACAAAGAUUCAGGAAAACUUUAGCUACAAAUACCUUAAAAAUGAUAGAUUGAUGAUUUCCUUAAUUCCUAGAAUUUCUUUUAUAAAUG | 0.374 |
| AAACAAAAACAAACCUUUUGGUAACUGUGCACUGUGUCCUUUAGCCAGGGCCGUGCCAACUUAUGAAGACACUGCAGCUUGAGAGGGGCUUUGCUGAGGCUUCCCCUUGG | 1.03 |
| AGGUUUCCUCGGGCCUGUUUUGACUGAUUGCUGGAGUGCAUUUGAUAGUUAAAAAUUACUAAUUGGUUUUAUUUCCCUUCACACUCUGCCUCCCCACUUCUCCCCCCGUU | 0.368 |
| CCCAACCUACCACCCAAAAGAACCUUUUGGCCAGUUGUUAAAAGGACAGGAAUGAUUUUAUUCUGUAGUUGGAGCCCAAACUCAUUAAGGUACCCUUUAUGAGGCCAAGA | 0.323 |
| CCUCCGUUGUAAUUAAUGAAACUAUUUUCUUUAAAGUGUUUCUAUGUUAAAAUAGCAUACUGUGUAUGUUUUAUCCAAAUUCAUUCAUGAAUCUUUCAUAUAUAUAUGCA | 0.614 |
| UGCUUUUGAGGCCCUCCCUCAGCUCUCUGUGGGUAGGGGUUACAAUUCACAUUCCUUAUUCUGAGAAUUUGGCCCCAGCUGUUUGCCUUUGACUCCCUGACCUCCAGAGC | 0.411 |
| CUUCCACCUCUAUCUCUCUUUCUCUCCUGCUGCACAAUCCUCCCACGACCCUUCCCACCCCAUUCACUGGGCUGGCUCCGACCUUUCCCAGGGCUAGCCUUCACUGCCCU | 0.626 |
| AUUAAGUAGUAACAGAAGUCUGAACAAUUGGAUAAAUUUGACUUCCAAGACAGCUAAACUUUUCAACUGCAAUUUUAAAAACUACACUACACUGUUAUAGUUAAUCUGAC | 0.348 |
| GCAUGAGCUAGAGUGGAUAUUCCUCCCCUAGAAGAGGAGAUGGGAGGAAAUGCAGUUUCAUGUAAUCCCUGUGAAGAGUGCCUAUGCCCACAGCCCAGUGGGUCCUUGUU | 3.22 |
| GCCAGUCACUUCUUCCUGGGUCUGUCUGCUGCUCUCGGUCCUCUAAGCUCCCCUUGGAGUUGGAGAGGUAUCGGGGACACUGCUGGUUAGUACGUUUUGAUUUUAAACAG | 0.304 |

Set 2 — method: protein binding microarray; molecule type: double-stranded DNA, one strand shown; medium: in vitro; tested at: not given; reference: not given; direction: higher = stronger binding
Target: Histone acetyltransferase KAT6A, winged helix 1, GST fusion (KAT6A, Homo sapiens, UniProt Q92794, residues 1-85)
Setting: 8-mer, flanks averaged, mean of 2 arrays, mostly near background
Construct (chain): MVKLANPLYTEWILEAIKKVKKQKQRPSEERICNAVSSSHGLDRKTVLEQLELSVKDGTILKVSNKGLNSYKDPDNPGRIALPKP
| Oligonucleotide | E-score |
| --- | --- |
| CATAAATG | -0.107 |
| AGAATGTC | -0.25 |
| AGACAATC | -0.146 |
| ACTATGAA | -0.0946 |
| CTGGGGTA | -0.165 |
| CTATCGCC | 0.0412 |
| CCTCCTCC | -0.245 |
| CTTCGTTA | 0.0384 |
| ACATGAAC | 0.0181 |
| ACTGTCCC | 0.0186 |
| GAAAGCTC | -0.143 |
| GAGACTAA | -0.158 |
| ATTTCTAC | -0.145 |

Set 3 — target: CCNE2, cyclin fold, Cln2 fusion (human); method: yeast growth competition, sequencing; medium: yeast; setting: weak parent motif; reference: not given; direction: higher = stronger binding
Starting sequence: ORC1 docking peptide (human); PRARKRLELGNLG; partner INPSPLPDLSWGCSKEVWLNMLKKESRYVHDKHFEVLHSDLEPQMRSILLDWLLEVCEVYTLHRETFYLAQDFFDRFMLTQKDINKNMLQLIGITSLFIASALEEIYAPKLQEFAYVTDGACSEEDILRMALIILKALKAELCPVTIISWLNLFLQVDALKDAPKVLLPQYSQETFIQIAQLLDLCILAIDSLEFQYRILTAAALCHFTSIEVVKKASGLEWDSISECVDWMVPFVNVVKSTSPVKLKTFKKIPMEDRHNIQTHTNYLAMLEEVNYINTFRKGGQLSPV
| Variant | normalised enrichment score |
| --- | --- |
| K5G | 0.866 |
| R4H | 0.429 |
| R4I | 0.0334 |
| R4N | 0.752 |
| R2G | -0.13 |
| L12N | 0.775 |

Other studies, line by line
| Molecule | target | test | system | conditions | scale | quantity | value |
| --- | --- | --- | --- | --- | --- | --- | --- |
| PhoQ, residues 284 288 289 292 302 303 TTCLQL | PhoP, residues 12 14 15 18 19 QWHVF (Escherichia coli, UniProt P23836) | Sort-seq, measured: YFP reporter | E. coli | PhoQ-PhoP variant library, together with: 10 µM Mg2+ | reference: high Mg2+ state, higher = stronger signaling | fold induction | 4.48 |
